# Results of several laboratories.
# Lines come from different studies, so protocols differ. ± gives the spread as reported.
# Organism: Plasmodium falciparum
Compound,test,test system,setting,IC50 [µM]
CC(=O)c1c(O)c(C)c(O)c2c1OC1=CC(=O)C(=C(C)NCCCCOC3OC4OC5(C)CCC6C(C)CCC(C3C)C46OO5)C(=O)C12C (mixture of isomers),"parasite growth, [3H]hypoxanthine incorporation",K1,erythrocytic stages,0.0117
C[C@H]1[C@H](OC(=O)CCC(=O)OCc2cn(-c3cc4ccc(O)cc4oc3=O)nn2)O[C@@H]2O[C@@]3(C)CC[C@H]4[C@H](C)CC[C@@H]1[C@@]24OO3,parasite growth,3D7,"24 h, blood stage",0.101
CC(=O)c1c(O)c(C)c(O)c2c1OC1=CC(=O)C(=C(C)NCCCCO)C(=O)C12C (stereo not drawn),"parasite growth, [3H]hypoxanthine incorporation",K1,erythrocytic stages,5.61
Cc1cc(N2CCC(C#N)(C3(C)CC3)C2=O)cc(C(=O)NCc2cc(F)cc(-c3cnn(C)c3)c2)n1 (racemic),parasite growth,compound-resistant Dd2-B2 bulk 1_Bulk_10e5_C4,,0.078
C[C@@H]1CC[C@H]2[C@@H](C)C(=O)O[C@@H]3O[C@@]4(C)CC[C@@H]1[C@]32OO4,parasite growth,NF54,"72 h, blood stage",0.0111
O=C1C(NCCc2ccc(O)cc2)=CC2=NCCc3c(Br)[nH]c1c32,"parasite growth, SYBR Green",3D7,blood stage,4.06
C[C@H]1[C@@H](OCc2cn(-c3cc4ccc(O)cc4oc3=O)nn2)O[C@@H]2O[C@@]3(C)CC[C@H]4[C@H](C)CC[C@@H]1[C@@]24OO3,parasite growth,3D7,"24 h, blood stage",0.001
COc1cc2c3cc1Oc1cc(ccc1O)CC1c4c(cc(OC)c(O)c4Oc4ccc(cc4)CC3N(C)CC2)CCN1C (stereo not drawn),"parasite growth, inhibitor, SYBR Green I",3D7,,1.46
C[C@H]1[C@@H](OCc2nnn(-c3cc4ccc(O)cc4oc3=O)c2CO[C@H]2O[C@@H]3O[C@@]4(C)CC[C@H]5[C@H](C)CC[C@@H]([C@H]2C)[C@@]35OO4)O[C@@H]2O[C@@]3(C)CC[C@H]4[C@H](C)CC[C@@H]1[C@@]24OO3,,"3D7, supernatant of treated uninfected erythrocytes","72 h, 500 nM preincubated 0.16 h",0.0011 ± 0.0004
COCCN(C)C(C)C(=O)NC(Cc1ccc(-c2ccccc2)cc1)B(O)O (stereo not drawn),,"V1/S β6 A117V K13 WT, WLL-resistant",72 h,3.42 ± 1.2
CC1CCC(C(C)(C)C(=O)Nc2ccc(Oc3ccccc3)cc2)CC1 (stereo not drawn),"parasite growth, SYBR Green",FCR3,blood stage,0.026
COc1cc(O)c(-c2cc(-c3cc(-c4c(O)cc5c(c4OC)[C@H](C)N[C@H](C)C5)c4cc(C)cc(OC)c4c3O)c(O)c3c(OC)cc(C)cc23)c2c1[C@H](C)N[C@H](C)C2,"parasite growth, SYBR Green",W2,"drug-resistant strain, blood stage",0.134
O=C1C(NCCc2ccc(O)c(Br)c2)=CC2=NCCc3c[nH]c1c32,"parasite growth, SYBR Green",3D7,blood stage,0.284
CC1C=CC=CC(C)C2C=CC3CC(C)(O)C(O[N+](=O)[O-])C(C)C3C2C(=O)C(Cl)(Cl)C(=O)C(C)C(=O)O1 (stereo not drawn),"parasite growth, ELISA",DD2,"drug-resistant strain, blood stage",0.00225
C[OH+][Cu-2]12[O]C(c3cn(-c4ccccc4)nc3-c3ccc(F)cc3)=N[N+]1=C(C)c1c(cc(C)oc1=O)[O]2 (stereo not drawn),SYBR Green I fluorescence,3D7,72 h,19.6
COC1(C)CC2C=CC3C(C)C=CC=CC(C)OC(=O)C(C)C(=O)C(Cl)(Cl)C(=O)C3C2C(C)C1O (stereo not drawn),"parasite growth, ELISA",DD2,"drug-resistant strain, blood stage",> 7.81
CCN(CC)CCCC(C)Nc1ccnc2cc(Cl)ccc12 (stereo not drawn),parasite growth,K1,"72 h, drug-resistant strain, blood stage",0.0877
CCOC(=O)CCCc1cccc2c(-c3ccc(Oc4ccccc4)cc3)ccnc12,"parasite growth, inhibitor, SYBR Green I",Cam3.1 R539T (MRA-1240),,9.26
CN1CCCCC1C(=O)NC(Cc1ccc(-c2ccccc2)cc1)B(O)O (stereo not drawn),ex vivo,Brazilian field isolates,median,0.018
C[OH+][Cu-2]12[O]C(c3cn(-c4ccccc4)nc3-c3ccccc3)=N[N+]1=C(C)c1c(cc(C)oc1=O)[O]2 (stereo not drawn),"parasite growth, SYBR Green I fluorescence",3D7,72 h,9.96
COc1ccc2cc1Oc1cc3c(cc1OC)CCN(C)C3Cc1ccc(cc1)Oc1c(O)c(OC)cc3c1C(C2)N(C)CC3 (stereo not drawn),"parasite growth, stage-specific treatment",,"12 h, early to late schizont stage",1.09 ± 0.5
COc1ccc2nc3cc(Cl)ccc3c(NCCNC(C)=C3C(=O)C=C4Oc5c(C(C)=O)c(O)c(C)c(O)c5C4(C)C3=O)c2c1 (stereo not drawn),"parasite growth, [3H]hypoxanthine incorporation",K1,erythrocytic stages,0.048
COc1cccc2c(-c3ccc(O)c4c3CCNC4)ccc(O)c12,"parasite growth, SYBR Green",W2,"drug-resistant strain, blood stage",0.8
CC1C=CC=CC(C)C2C=CC3CC(C)(Cl)C(O)C(C)C3C2C(=O)C(Cl)(Cl)C(=O)C(C)C(=O)O1 (stereo not drawn),"parasite growth, ELISA",DD2,"drug-resistant strain, blood stage",0.31
C[N+]1=C2C=C(NCCc3c[nH]c4ccccc34)C(=O)c3[nH]cc(c32)CC1,"parasite growth, SYBR Green",3D7,blood stage,0.0094
CCOC1C(C)C2C(C=CC3C(C)C=CC=CC(C)OC(=O)C(C)C(=O)C(Cl)(Cl)C(=O)C32)CC1(C)O (stereo not drawn),"parasite growth, ELISA",DD2,"drug-resistant strain, blood stage",> 11
Cc1cc(C(c2ccc(Cl)cc2)c2ccc(Cl)cc2)c2nccc(C)c2c1,"parasite growth, inhibitor, SYBR Green I",Cam3.1 R539T (MRA-1240),,5.29

# Excerpt of the above:
Compound,test,test system,setting,IC50 [µM]
COc1ccc2nc3cc(Cl)ccc3c(NCCNC(C)=C3C(=O)C=C4Oc5c(C(C)=O)c(O)c(C)c(O)c5C4(C)C3=O)c2c1 (stereo not drawn),"parasite growth, [3H]hypoxanthine incorporation",K1,erythrocytic stages,0.048
